# Literature values that unrelated publications cite.
# ± marks the error that the study gave.
# Chain of UniProt P06536 (whole entry, looked up): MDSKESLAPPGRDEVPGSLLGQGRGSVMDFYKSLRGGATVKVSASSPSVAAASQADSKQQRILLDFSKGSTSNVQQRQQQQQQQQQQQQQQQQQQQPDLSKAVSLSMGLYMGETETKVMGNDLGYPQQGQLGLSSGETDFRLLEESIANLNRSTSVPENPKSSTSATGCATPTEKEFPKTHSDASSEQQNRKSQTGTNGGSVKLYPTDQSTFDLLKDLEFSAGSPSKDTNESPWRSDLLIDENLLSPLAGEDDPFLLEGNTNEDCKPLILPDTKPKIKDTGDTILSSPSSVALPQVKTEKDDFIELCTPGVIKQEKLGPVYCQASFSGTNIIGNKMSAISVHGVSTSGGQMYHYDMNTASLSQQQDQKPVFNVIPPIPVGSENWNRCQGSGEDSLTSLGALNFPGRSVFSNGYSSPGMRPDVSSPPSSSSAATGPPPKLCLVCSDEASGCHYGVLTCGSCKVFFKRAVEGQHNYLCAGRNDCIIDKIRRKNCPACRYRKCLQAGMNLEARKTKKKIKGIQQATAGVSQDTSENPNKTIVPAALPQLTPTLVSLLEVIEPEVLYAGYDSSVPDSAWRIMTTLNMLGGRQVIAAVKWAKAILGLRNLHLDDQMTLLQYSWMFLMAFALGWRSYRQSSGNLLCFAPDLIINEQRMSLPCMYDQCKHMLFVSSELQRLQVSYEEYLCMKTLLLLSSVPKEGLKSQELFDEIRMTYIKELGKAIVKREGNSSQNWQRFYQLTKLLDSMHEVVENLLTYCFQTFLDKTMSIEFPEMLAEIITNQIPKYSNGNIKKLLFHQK
# Chain of UniProt Q9Y6E0 (whole entry, looked up): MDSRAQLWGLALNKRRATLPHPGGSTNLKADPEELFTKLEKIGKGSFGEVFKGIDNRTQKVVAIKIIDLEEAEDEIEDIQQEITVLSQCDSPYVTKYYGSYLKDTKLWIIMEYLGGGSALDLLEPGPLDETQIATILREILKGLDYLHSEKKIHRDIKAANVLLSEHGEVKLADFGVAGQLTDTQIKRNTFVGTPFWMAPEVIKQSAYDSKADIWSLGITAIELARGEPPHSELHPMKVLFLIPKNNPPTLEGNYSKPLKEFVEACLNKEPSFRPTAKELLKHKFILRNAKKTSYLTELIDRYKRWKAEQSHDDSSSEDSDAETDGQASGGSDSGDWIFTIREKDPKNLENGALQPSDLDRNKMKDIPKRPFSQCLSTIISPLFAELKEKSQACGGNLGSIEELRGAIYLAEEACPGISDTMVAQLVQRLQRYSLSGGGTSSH
SMILES,tested on,test,system,conditions,how to read,endpoint,result
CNC(C)C1CCC(N)C(OC2C(N)CC(N)C(OC3OCC(C)(O)C(NC)C3O)C2O)O1 (stereo not drawn),Pseudomonas aeruginosa,,clinical isolate RKI-No_1/16,,,MIC,2 µg/mL
O=C(c1ccc(Cl)cc1)N(Cc1ccccc1)C1CCCCC1,HUVEC,cell viability,,,,lowest toxic concentration,> 1 nM
COC(=O)N[C@@H](C)CNc1nccc(-c2cn(C(C)C)nc2-c2cc(Cl)cc(NS(C)(=O)=O)c2F)n1,human primary hepatocytes,inducer,,concentration not given,,CYP2C9 induction,increased
CC(=O)O[C@H]1C(=O)[C@@]2(C)[C@H]([C@H](OC(=O)c3ccccc3)[C@]3(O)C[C@H](OC(=O)[C@H](O)[C@@H](NC(=O)c4ccccc4)c4ccccc4)C(C)=C1C3(C)C)[C@]1(OC(C)=O)CO[C@@H]1C[C@@H]2O,LCC6-WT,cytotoxicity,,,,IC50,0.00181 µM
CC(=O)Nc1ccc(O)cc1,CYP2D6,substrate,,,,Km,440 µM
O=C1Oc2ccc3ccccc3c2C1c1c[nH]c2ccccc12 (stereo not drawn),COLO 320 ABCB1-overexpressing resistant,,,concentration not given,,cytotoxicity,no effect
C=CCC(CCC)C(=O)O (stereo not drawn),mouse D3 embryonic stem cells,"cell differentiation, inhibitor",,unbound medium concentration,,IC10,212 µM
COc1ccc(C[C@H](N)C(=O)N[C@H]2[C@@H](O)[C@H](n3cnc4c(N(C)C)ncnc43)O[C@@H]2CO)cc1,Vero,MTT,,,,CC50,2.76 ± 0.16 µM
C[C@@H]1O[C@@H](OC[C@H]2O[C@@H](Oc3c(-c4ccc(O)c(O)c4)oc4cc(O)cc(O)c4c3=O)[C@H](O)[C@@H](O)[C@@H]2O)[C@H](O)[C@H](O)[C@H]1O,Vero,,,,,CC50,329 µg/mL
CCCCCC(CCC)C(=O)O (stereo not drawn),human neural embryonic cells,cell viability,,unbound medium concentration,,EC10,43 µM
Nc1cc(C(F)(F)F)c(-c2nc(N3CCOCC3)nc(N3CCOCC3)n2)cn1,"Serine/threonine-protein kinase 24 (STK24, Homo sapiens, UniProt Q9Y6E0)",enzyme activity,,10 µM,relative to: untreated,remaining activity,92%
C[C@@H](Oc1ccc(S(C)(=O)=O)cc1C(=O)N1C[C@@H]2C[C@]2(c2cc(C(F)(F)F)on2)C1)C(F)(F)F,primary human hepatocytes,"CYP3A4 induction, inducer",,,,EC50,1.96 µM
CC1(C)S[C@@H]2[C@H](NC(=O)[C@H](N)c3ccccc3)C(=O)N2[C@H]1C(=O)O,Pseudomonas aeruginosa,,clinical isolate RKI-No_216/16,,,MIC,> 16 µg/mL
C[C@H]1COCCN1c1nc(-c2cnc(N)cc2C(F)F)nc(N2CCOCC2)n1,T98G,,,,,GI50,0.35 µM
CCCC(CCC)C(=O)O,mouse D3 embryonic stem cells,cell viability,,unbound medium concentration,,IC10,285 µM
CCCCCCCC1(OC)OC(=O)c2cc(OC)cc(OC)c21 (stereo not drawn),MCF7,cytotoxicity,,,,IC50,54 µM
COc1cc2oc(-c3ccc(O)c(O)c3)cc(=O)c2c(O)c1O,Huh7.5,cell viability,,,,CC50,114 µM
CCC(=O)O[C@]1(C(=O)SCF)[C@H](C)C[C@H]2[C@@H]3C[C@H](F)C4=CC(=O)C=C[C@]4(C)[C@@]3(F)[C@@H](O)C[C@@]21C,"Glucocorticoid receptor (Nr3c1, Rattus norvegicus, UniProt P06536)",,"rat, spleen","intravenous, 90 nmol/kg, 1.117 (unit not given)",,receptor occupancy,60.1%
C=CCCC(=O)O,mouse D3 embryonic stem cells,"cell differentiation, inhibitor",,unbound medium concentration,,IC10,71 µM
O=C(O)CNC(=O)C(CS)Cc1ccccc1 (stereo not drawn),Vero,MTT,,,,CC50,> 100 µM
CN(C)c1ccc(C(=O)N(CC(=O)NCc2ccccc2)Cc2ccc(C(=O)Nc3ccccc3N)cc2)cc1,A2780,"cell viability, MTT",,72 h,,IC50,4.33 ± 0.32 µM

# Excerpt of the above:
SMILES,tested on,test,system,conditions,how to read,endpoint,result
CCCC(CCC)C(=O)O,mouse D3 embryonic stem cells,cell viability,,unbound medium concentration,,IC10,285 µM
CCCCCCCC1(OC)OC(=O)c2cc(OC)cc(OC)c21 (stereo not drawn),MCF7,cytotoxicity,,,,IC50,54 µM
COc1cc2oc(-c3ccc(O)c(O)c3)cc(=O)c2c(O)c1O,Huh7.5,cell viability,,,,CC50,114 µM
